{"data": "Experimental data from different studies", "note": "Every numbered part comes from another study and shows a few of its results, in no order."}
{"data": "Study 1", "target": "Phosphate system positive regulatory protein PHO4, full length, GST-tagged (PHO4, Saccharomyces cerevisiae, UniProt P07270, residues 1-312)", "technique": "competition protein-binding microarray", "molecule type": "double-stranded DNA, one strand shown", "sample": "in vitro", "concentration": "2 µM", "setting": "whole 60-bp probe, lowest competitor level", "together with": "Cbf1 competitor, 0.05 µM", "direction": "higher = stronger binding", "Residues (chain)": "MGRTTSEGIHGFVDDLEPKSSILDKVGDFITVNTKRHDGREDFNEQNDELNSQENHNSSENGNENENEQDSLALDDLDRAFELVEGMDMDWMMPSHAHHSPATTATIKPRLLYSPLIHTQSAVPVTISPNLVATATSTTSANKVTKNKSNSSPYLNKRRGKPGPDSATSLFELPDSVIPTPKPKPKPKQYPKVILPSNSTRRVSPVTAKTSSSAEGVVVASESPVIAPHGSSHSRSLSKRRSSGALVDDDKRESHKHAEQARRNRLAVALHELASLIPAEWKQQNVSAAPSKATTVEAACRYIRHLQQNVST"}
{"Oligonucleotide": "CGGGGTTAAGTTTTTCACGTGCATTGCTTGCAGCAGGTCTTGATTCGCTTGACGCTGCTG", "fluorescence intensity [a.u.]": 15100}
{"Oligonucleotide": "TGAAAATACCATTTGGGAAGGTAACAAAATCATACAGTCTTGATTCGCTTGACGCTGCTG", "fluorescence intensity [a.u.]": 3040}
{"Oligonucleotide": "TCCAGAAGAACCCGTCACGTTTTGGATTGGTTTTTGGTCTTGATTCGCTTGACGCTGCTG", "fluorescence intensity [a.u.]": 11500}
{"Oligonucleotide": "ATATTTTATCATCCACACGTGGTGATATTTCAACGAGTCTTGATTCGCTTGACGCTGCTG", "fluorescence intensity [a.u.]": 15400}
{"Oligonucleotide": "CTTCCTTTGTCCTGGTAGGTGTGAGCTCTTGAGAGTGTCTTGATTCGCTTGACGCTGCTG", "fluorescence intensity [a.u.]": 5550}
{"Oligonucleotide": "TGTCTTGTAATACCTTTTTTTTTAACTTTTTCAAGAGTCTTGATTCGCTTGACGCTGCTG", "fluorescence intensity [a.u.]": 2950}
{"Oligonucleotide": "GTCAACAAAGACCCCATCATGACAAAAGCTCAGAAGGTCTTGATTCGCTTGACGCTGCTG", "fluorescence intensity [a.u.]": 4190}
{"Oligonucleotide": "CTATCGGCCGCCACTGTCGTGTCTGAGTAGACGGGAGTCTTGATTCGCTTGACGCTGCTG", "fluorescence intensity [a.u.]": 5390}
{"Oligonucleotide": "AATCGTAGGATAGGTTACATGATAATTGCAATAGATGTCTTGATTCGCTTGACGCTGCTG", "fluorescence intensity [a.u.]": 3430}
{"Oligonucleotide": "AATCCAATATTGAAAAACGTGAGTACGCAGAGGAGAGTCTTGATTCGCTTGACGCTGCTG", "fluorescence intensity [a.u.]": 11600}
{"Oligonucleotide": "CTTTCCCGATCTTGCGTTGTGGGTGTAGCACATTTGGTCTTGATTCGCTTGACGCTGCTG", "fluorescence intensity [a.u.]": 5810}
{"Oligonucleotide": "TGCCTATGGTAGCTGCATGATCATACAATGCACTCCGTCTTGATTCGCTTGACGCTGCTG", "fluorescence intensity [a.u.]": 5280}
{"data": "Study 2", "target": "RING finger protein unkempt homolog, zinc fingers 1-6, GST-SBP tag (UNK, Homo sapiens, UniProt Q9C0B0, residues 30-357)", "technique": "RNA Bind-n-Seq", "molecule type": "RNA", "sample": "in vitro", "concentration": "not given", "setting": "RNA with constant flanks, ends assumed", "relative to": "input RNA pool", "direction": "higher = stronger binding", "chain of UniProt Q9C0B0 (30-357, looked up)": "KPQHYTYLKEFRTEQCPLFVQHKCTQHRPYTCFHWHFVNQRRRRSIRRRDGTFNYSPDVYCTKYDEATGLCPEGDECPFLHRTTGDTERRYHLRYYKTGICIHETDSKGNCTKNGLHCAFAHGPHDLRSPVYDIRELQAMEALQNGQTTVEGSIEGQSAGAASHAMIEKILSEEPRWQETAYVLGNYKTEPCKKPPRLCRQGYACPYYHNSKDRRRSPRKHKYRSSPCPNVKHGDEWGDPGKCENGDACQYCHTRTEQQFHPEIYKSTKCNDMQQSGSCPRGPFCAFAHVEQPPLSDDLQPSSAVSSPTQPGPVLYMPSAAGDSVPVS"}
{"Oligonucleotide": "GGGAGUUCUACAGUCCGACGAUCACCCGUGUAAACAUUAUUCCCCCCAGGAGAAAAUGGUGUUAUUCAAAUGAAUCAUAAUAAAACCGCCUCUAAACAGUUUCUAAGCGGGAGCCUCCGUGGAACUCAGCGCUCCGCUCCUCCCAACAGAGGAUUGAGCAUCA", "bound/input enrichment [ratio]": 0.535}
{"Oligonucleotide": "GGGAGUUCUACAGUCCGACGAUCCAUGGGUUUUAAGUGCUUGUGGCUCUCUGAAGCUUAAGUGAGGAUUUCCUUGCAAUGAGCCGAAUUUCCCUUCUGUCCCUUGUCACAAGUUUAAAAACCUCACAGCUUGUAUAAUGUAAUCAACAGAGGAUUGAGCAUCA", "bound/input enrichment [ratio]": 0.219}
{"Oligonucleotide": "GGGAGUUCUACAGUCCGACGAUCAACCAAUCAAAAACCACUCCUUUUAAAGAUUGCAAAGUAUUAAAACAAAGGCCAAGGUUUGCCGCCCUGAAGAAGCAGCCAUCCUAUAUUGGAGGACAUGAGGGCUUAGAAUUAAGAGAUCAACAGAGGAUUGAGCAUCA", "bound/input enrichment [ratio]": 1.08}
{"Oligonucleotide": "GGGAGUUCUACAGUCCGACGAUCUGGAGUCUGGCUUUGAAAGAUUUCAUUGUUGGUAGAAAUAACAGGUUGAGAAAGAGGGAGUCCGCAUCACCUAAAACCUGCACGUGAACAAGGGUUGACAUGAUACACUAUGGCCUUAGACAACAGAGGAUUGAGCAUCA", "bound/input enrichment [ratio]": 0.297}
{"Oligonucleotide": "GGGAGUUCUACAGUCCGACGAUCGCUGGAUAUGGAGACAUUUACCUCAAUGCUGGUCCCAUGUUGUUUAGUGGAGACAAGGACCACCGAUUUGAAUAUAGCCAUGGUCCUAUCACAGUCCUCACAAACAGCAAUGACCCUUCCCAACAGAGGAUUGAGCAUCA", "bound/input enrichment [ratio]": 0.107}
{"Oligonucleotide": "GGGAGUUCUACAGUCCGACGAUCGGAGCUGCGGGAACCGGACUCCGGGCGGGUUGGACUGCUGGAGUCAAUGAGAGAAGCUUUCCGGUUAAUUUGAAUAUAAGAUCAGAUCUGAUUGGCCCACCUGGACACCCCUUCAAGGAACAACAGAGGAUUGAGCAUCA", "bound/input enrichment [ratio]": 0.236}
{"Oligonucleotide": "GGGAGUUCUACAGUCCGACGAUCUCUGCAUGAUGUAGAAAUAAAUAAAAUUAUAUCCACAACUGCAUCAAAGACAGAAACACCAACCGUGUCUAAGUCUCUGAGUUCUUCUUUGGAUGACACCGAAGUUAAGAAGGUUAUGGACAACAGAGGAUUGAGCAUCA", "bound/input enrichment [ratio]": 0.427}
{"Oligonucleotide": "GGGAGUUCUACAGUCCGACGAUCGUUAGCUGGGGUAAAAAGGUCCAGCCUAUAGACUCCAUAUUAGCAGACUGGAAUGAAGAUACCGAAGCAUUUGAAAUGAUGGAGAAGGAUGAGCUAUGACUUGCUAAACAAUCUGUUGGUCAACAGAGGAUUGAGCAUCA", "bound/input enrichment [ratio]": 0.54}
{"Oligonucleotide": "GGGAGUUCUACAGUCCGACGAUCGAUAAAGACCCCAACAAGAAGAUGAAACGAAACUUAAGGAAAAUUCUGGAUAGUAAAGCAACCGACCUUAUGAAUGCACUAAUGAGGCUAAAUCAGAUCAGGCCUGGGCUUCAGUAUAAGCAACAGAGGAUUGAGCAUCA", "bound/input enrichment [ratio]": 0.341}
{"Oligonucleotide": "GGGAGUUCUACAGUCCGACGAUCGUGGACAUGGCAGCACAGGUGGCUGCAGGAAUGGCUUACAUCGAGCGCAUGAAUUAUAUCCACCGAGAUCUGCGAUCAGCAAACAUUCUAGUGGGGAAUGGACUCAUAUGCAAGAUUGCUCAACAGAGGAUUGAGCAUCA", "bound/input enrichment [ratio]": 0.283}
{"Oligonucleotide": "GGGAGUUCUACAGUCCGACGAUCAAUAGUAGUACAGCUAUUGGAAUCAGAUGCAAAGAUGGUGUUGUCUUUGGGGUAGAAAAAUCCGUCCUUUCUAAACUUUAUGAAGAAGGUUCCAACAAAAGACUUUUUAAUGUUGAUCGGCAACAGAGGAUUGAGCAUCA", "bound/input enrichment [ratio]": 0.198}
{"data": "Study 3", "target": "Histone acetyltransferase KAT6A, both winged helices, GST fusion (KAT6A, Homo sapiens, UniProt Q92794, residues 1-181)", "technique": "protein binding microarray", "molecule type": "double-stranded DNA, one strand shown", "sample": "in vitro", "concentration": "not given", "setting": "8-mer, flanks averaged, mean of 2 arrays, mostly near background", "relative to": "not given", "direction": "higher = stronger binding", "Residues (chain)": "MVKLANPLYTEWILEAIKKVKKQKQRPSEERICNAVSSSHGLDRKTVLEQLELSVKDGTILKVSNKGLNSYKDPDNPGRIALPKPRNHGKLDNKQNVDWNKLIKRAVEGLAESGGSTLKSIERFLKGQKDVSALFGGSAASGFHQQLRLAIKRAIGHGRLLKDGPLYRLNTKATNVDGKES"}
{"Oligonucleotide": "ATGACAAG", "E-score": -0.091}
{"Oligonucleotide": "AAGTTTCC", "E-score": -0.0682}
{"Oligonucleotide": "GCATAGTA", "E-score": 0.0605}
{"Oligonucleotide": "GTCACCTA", "E-score": -0.0605}
{"Oligonucleotide": "AAACTGCT", "E-score": -0.0294}
{"Oligonucleotide": "CCGACCAA", "E-score": 0.0201}
{"Oligonucleotide": "CATACTGG", "E-score": -0.0254}
{"Oligonucleotide": "ATACTAAA", "E-score": -0.0253}
{"Oligonucleotide": "AAGGACTT", "E-score": -0.189}
{"Oligonucleotide": "GATTCTCA", "E-score": -0.0762}
{"Oligonucleotide": "ATCGTATG", "E-score": -0.0681}
{"Oligonucleotide": "TACGGGGA", "E-score": 0.191}
{"Oligonucleotide": "CTGCGCAA", "E-score": 0.176}
{"data": "Further values, each from its own experiment"}
{"Substance": "PhoQ, residues 284 288 289 292 302 303 TNASYF", "target": "PhoP, residues 12 14 15 18 19 MHTVL (Escherichia coli, UniProt P23836)", "test": "Sort-seq, measured: YFP reporter", "test system": "E. coli", "setting": "PhoQ-PhoP variant library, together with: 10 µM Mg2+", "scale": "relative to: high Mg2+ state, higher = stronger signaling", "measurement": "fold induction", "value": 8.88}
